Assay results gathered from unrelated publications.
Each line is one published result; not all experiments were run side by side. Positions of bridges follow the written chain, without caps; N, C: chain ends. Ends that are not written are not given here. No end group written: not given here.
RGS4 residues 19-end: RGS4 residues 19-end 19-205, Alexa Fluor 568 label (Rattus norvegicus, UniProt P49799)
Sequence of UniProt P49799 (whole entry, unmodified, looked up): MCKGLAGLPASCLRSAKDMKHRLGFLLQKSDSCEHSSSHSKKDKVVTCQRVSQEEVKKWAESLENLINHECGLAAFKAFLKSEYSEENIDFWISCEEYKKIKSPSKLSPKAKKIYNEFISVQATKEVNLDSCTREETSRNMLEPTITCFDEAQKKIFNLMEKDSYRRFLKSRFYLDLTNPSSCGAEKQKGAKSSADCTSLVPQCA
RGS4 residues 52-end: RGS4 residues 52-end 52-205, Alexa Fluor 532 label (Homo sapiens, UniProt P49798)
Sequence of UniProt P49798 (whole entry, unmodified, looked up): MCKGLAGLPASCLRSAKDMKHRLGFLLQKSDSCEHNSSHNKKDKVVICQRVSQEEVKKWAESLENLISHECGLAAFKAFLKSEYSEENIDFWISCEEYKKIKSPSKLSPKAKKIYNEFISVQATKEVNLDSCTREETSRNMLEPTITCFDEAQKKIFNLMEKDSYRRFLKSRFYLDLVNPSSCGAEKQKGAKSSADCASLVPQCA
B1: SEC72 (Saccharomyces cerevisiae, UniProt P39742); lysines PEGylated; sequence looked up; chain MVTLEYNANSKLITASDAVVALSTETNIDQINVLTTSLIGETNPNFTPQPNEALSKMIKGLFESGMKNLQQKKLNEALKNVSLAIEMAQRKRAPWEAFAIQLPELHFMLRSKIDLCLILGKHLEALQDLDFLLGTGLIQPDVFVRKADCLLKLRQWEEARATCERGLALAPEDMKLRALLIETARNLAEYNGE
B2: pum 848-1090 (Drosophila melanogaster, UniProt P25822-1); sequence looked up; chain VPPGATRAGPPPPQGPQLYQPQPQTAQQNLYSQQNGSSVGGLALNTSSLTGRRDSFDRSTSAFSPSTMDYTSSGVAAAANAVNSTVAQAAAAAAAAAAARGKWPGAMSGAASGAYGALGAGNASASPLGAPITPPPSAQSCLLGSRAPGAESRQRQQQQQQLAAVGLPATAAAAQAAVAAAANNMFGSNSSIFSNPLAIPGTAAVAAAAAAAAAANSRQVAATAAAAAAVAAAAGGVGGAPQP
B3: NTM ectodomain 36-311 (Homo sapiens, UniProt Q9P121); chain ATFPKAMDNVTVRQGESATLRCTIDNRVTRVAWLNRSTILYAGNDKWCLDPRVVLLSNTQTQYSIEIQNVDVYDEGPYTCSVQTDNHPKTSRVHLIVQVSPKIVEISSDISINEGNNISLTCIATGRPEPTVTWRHISPKAVGFVSEDEYLEIQGITREQSGDYECSASNDVAAPVVRRVKVTVNYPPYISEAKGTGVPVGQKGTLQCEASAVPSAEFQWYKDDKRLIEGKKGVKVENRPFLSKLIFFNVSEHDYGNYTCVASNKLGHTNASIMLF
B4: NAS6 1-228 (Saccharomyces cerevisiae, UniProt P50086); chain MSNYPLHQACMENEFFKVQELLHSKPSLLLQKDQDGRIPLHWSVSFQAHEITSFLLSKMENVNLDDYPDDSGWTPFHIACSVGNLEVVKSLYDRPLKPDLNKITNQGVTCLHLAVGKKWFEVSQFLIENGASVRIKDKFNQIPLHRAASVGSLKLIELLCGLGKSAVNWQDKQGWTPLFHALAEGHGDAAVLLVEKYGAEYDLVDNKGAKAEDVALNEQVKKFFLNNV
B5: AddB 1-1166 D961A (Bacillus subtilis, UniProt P23477); chain MGAEFLVGRSGSGKTKLIINSIQDELRRAPFGKPIIFLVPDQMTFLMEYELAKTPDMGGMIRAQVFSFSRLAWRVLQHTGGMSRPFLTSTGVQMLLRKLIEEHKQEFKVYQKASDKSGFTAQVERMLTEFKRYCLEPEDIRRMAESGTASEYRGERVLSEKLHDLSILYQQMEKSLADQYLHSEDYLTLLAEHIPLAEDIKGAHIYVDGFYQFTPQEFRVLEQLMVHAEHITFSLTADKPSYEREPHELELFRMTGKTYYRLHQKAKELNLDITYKELSGTERHTKTPELAHLEAQYEARPAIPYAEKQEALTVMQAANRRAELEGIAREIHALVREKGYRYKDVAILARQPEDYKDMVKEVFADYEIPYFIDGKASMLNHPLIEFIRSSLDVLKGNWRYEAVFRCVKTELLFPLNEPKAKVREQVDQLENYCIAYGIKGDRWTKGDRFQYRRFVSLDDDFAQTDQEIEMENMLNDTRDWIVPPLFQLQKRMKKAKTVQEKAEALYRYLEETDVPLKLDQERQRAEDDGRIIEAQQHQQAWDAVIQLLEEFVEMMGDDEISLDLFQQMIEAGAESLTFSLIPPALDQVFVGNMDLSRMYGTSCTFVLGANDGVLPARPDENGVLSDDDREWLKTIGVELSSGGRERLLDEHFLIYMAFSSPSDRLYVSYPIADAEGKTLLPSMIVKRLEELFPHHKERLLTNEPEQVSDEEQLMYVVNKSVAQSFTASQLRLWTREYDISDVWWSTYNVLMSEQDRLQSKKLFSSLFFRNEVKQLERSVSRQLYGERIQGSVSRMETFNACPFSHFASHGLHLKERQFFKLEAPDIGQLFHSSLKLISDRLREQKLDWRDLTKEQCELFSYDAVERLAPKLQKEILLSSNRHYYVKEKLQKIVTRVSGILSEHAKASGFVPIGLELGFGGKGPLPPLTFQLKNGCTMELVGRIDRVDKAESSKGLLLRIVAYKSSDKGLDLAEVYYGLALQMLTYLDLSITHSADWLGMRATPAGVLYFHIHDPMIQSNLPLGLDEIEQEIFKKFKMKGLLLGDQEVVRLMDTTLQEGRSNIINAGLKKDGSLRSDSAAVGEKEFDLLTKHVRRTFQEAGEQITDGRVSIEPYKMKNKTPCTYCAFKSVCQFDESLEENEYRPLKAEKDKTILEWIKKEADGNEHS
B6: ACAT1 (Homo sapiens, UniProt P24752); sequence looked up; chain VSKPTLKEVVIVSATRTPIGSFLGSLSLLPATKLGSIAIQGAIEKAGIPKEEVKEAYMGNVLQGGEGQAPTRQAVLGAGLPISTPCTTINKVCASGMKAIMMASQSLMCGHQDVMVAGGMESMSNVPYVMNRGSTPYGGVKLEDLIVKDGLTDVYNKIHMGSCAENTAKKLNIARNEQDAYAINSYTRSKAAWEAGKFGNEVIPVTVTVKGQPDVVVKEDEEYKRVDFSKVPKLKTVFQKENGTVTAANASTLNDGAAALVLMTADAAKRLNVTPLARIVAFADAAVEPIDFPIAPVYAASMVLKDVGLKKEDIAMWEVNEAFSLVVLANIKMLEIDPQKVNINGGAVSLGHPIGMSGARIVGHLTHALKQGEYGLASICNGGGGASAMLIQKL
B7: apcA (Synechocystis sp. PCC 6803, UniProt Q01951); bilin at Cys81; sequence looked up; chain MSIVTKSIVNADAEARYLSPGELDRIKAFVTGGAARLRIAETLTGSRETIVKQAGDRLFQKRPDIVSPGGNAYGEEMTATCLRDMDYYLRLVTYGVVSGDVTPIEEIGLVGVREMYRSLGTPIEAVAQSVREMKEVASGLMSSDDAAEASAYFDFVIGKMS
B8: ftsZ (Bacillus subtilis, UniProt P17865); sequence looked up; chain MLEFETNIDGLASIKVIGVGGGGNNAVNRMIENEVQGVEYIAVNTDAQALNLSKAEVKMQIGAKLTRGLGAGANPEVGKKAAEESKEQIEEALKGADMVFVTAGMGGGTGTGAAPVIAQIAKDLGALTVGVVTRPFTFEGRKRQLQAAGGISAMKEAVDTLIVIPNDRILEIVDKNTPMLEAFREADNVLRQGVQGISDLIATPGLINLDFADVKTIMSNKGSALMGIGIATGENRAAEAAKKAISSPLLEAAIDGAQGVLMNITGGTNLSLYEVQEAADIVASASDQDVNMIFGSVINENLKDEIVVTVIATGFIEQEKDVTKPQRPSLNQSIKTHNQSVPKREPKREEPQQQNTVSRHTSQPADDTLDIPTFLRNRNKRG
B9: CDC14 C283S (Saccharomyces cerevisiae, UniProt Q00684); sequence looked up; chain MRRSVYLDNTIEFLRGRVYLGAYDYTPEDTDELVFFTVEDAIFYNSFHLDFGPMNIGHLYRFAVIFHEILNDPENANKAVVFYSSASTRQRANAACMLCCYMILVQAWTPHQVLQPLAQVDPPFMPFRDAGYSNADFEITIQDVVYGVWRAKEKGLIDLHSFNLESYEKYEHVEFGDFNVLTPDFIAFASPQEDHPKGYLATKSSHLNQPFKSVLNFFANNNVQLVVRLNSHLYNKKHFEDIGIQHLDLIFEDGTCPDLSIVKNFVGAAETIIKRGGKIAVHSKAGLGRTGCLIGAHLIYTYGFTANECIGFLRFIRPGMVVGPQQHWLYLHQNDFREWKYTTRISLKPSEAIGGLYPLISLEEYRLQKKKLKDDKRVAQNNIEGELRDLTMTPPSNGHGALSARNSSQPSTANNGSNSFKSSAVPQTSPGQPRKGQNGSNTIEDINNNRNPTSHANRKVVIESNNSDDESMQDTNGTSNHYPKVSRKKNDISSASSSRMEDNEPSATNINNAADDTILRQLLPKNRRVTSGRRTTSAAGGIRKISGSIKK
B10: VPS21 (Saccharomyces cerevisiae, UniProt P36017); chain MNTSVTSIKLVLLGEAAVGKSSIVLRFVSNDFAENKEPTIGAAFLTQRVTINEHTVKFEIWDTAGQERFASLAPMYYRNAQAALVVYDVTKPQSFIKARHWVKELHEQASKDIIIALVGNKIDMLQEGGERKVAREEGEKLAEEKGLLFFETSAKTGENVNDVFLGIGEKIPLKTAEEQNSASNERESNNQRVDLNAANDGTSANSACSC
B11: SMAD4 273-552 (Homo sapiens, UniProt Q13485); sequence looked up; chain TAPYTPNLPHHQNGHLQHHPPMPPHPGHYWPVHNELAFQPPISNHPAPEYWCSIAYFEMDVQVGETFKVPSSCPIVTVDGYVDPSGGDRFCLGQLSNVHRTEAIERARLHIGKGVQLECKGEGDVWVRCLSDHAVFVQSYYLDREAGRAPGDAVHKIYPSAYIKVFDLRQCHRQMQQQAATAQAAAAAQAAAVAGNIPGPGSVGGIAPAISLSAAAGIGVDDLRRLCILRMSFVKGWGPDYPRQSIKETPCWIEIHLHRALQLLDEVLHTMPIADPQPLD
Sequence of UniProt Q9P0J1 (whole entry, looked up): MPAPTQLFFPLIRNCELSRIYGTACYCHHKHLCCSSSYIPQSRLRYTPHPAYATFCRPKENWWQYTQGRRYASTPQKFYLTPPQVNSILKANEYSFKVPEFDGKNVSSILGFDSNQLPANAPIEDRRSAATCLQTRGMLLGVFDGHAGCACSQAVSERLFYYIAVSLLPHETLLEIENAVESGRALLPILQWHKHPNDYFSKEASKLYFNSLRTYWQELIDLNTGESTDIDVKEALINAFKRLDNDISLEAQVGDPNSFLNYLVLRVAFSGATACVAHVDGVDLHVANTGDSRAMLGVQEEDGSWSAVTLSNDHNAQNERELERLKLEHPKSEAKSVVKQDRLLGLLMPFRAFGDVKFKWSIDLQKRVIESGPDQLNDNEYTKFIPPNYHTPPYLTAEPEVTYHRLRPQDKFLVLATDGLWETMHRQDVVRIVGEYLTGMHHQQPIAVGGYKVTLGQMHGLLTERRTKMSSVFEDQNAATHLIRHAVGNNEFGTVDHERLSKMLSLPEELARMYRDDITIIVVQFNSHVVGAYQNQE
Sequence of UniProt Q99816 (whole entry, unmodified, looked up): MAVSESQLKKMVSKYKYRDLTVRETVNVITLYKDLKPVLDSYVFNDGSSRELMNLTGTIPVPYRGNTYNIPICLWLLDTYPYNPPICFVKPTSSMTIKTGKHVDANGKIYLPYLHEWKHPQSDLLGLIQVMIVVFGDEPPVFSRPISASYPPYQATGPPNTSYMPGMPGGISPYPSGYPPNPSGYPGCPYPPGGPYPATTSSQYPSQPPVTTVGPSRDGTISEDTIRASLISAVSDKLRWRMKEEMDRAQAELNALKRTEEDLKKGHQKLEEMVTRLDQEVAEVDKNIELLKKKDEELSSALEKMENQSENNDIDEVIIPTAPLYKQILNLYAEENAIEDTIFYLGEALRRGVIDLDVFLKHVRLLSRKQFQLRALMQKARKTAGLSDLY
Sequence of UniProt Q06628 (whole entry, looked up): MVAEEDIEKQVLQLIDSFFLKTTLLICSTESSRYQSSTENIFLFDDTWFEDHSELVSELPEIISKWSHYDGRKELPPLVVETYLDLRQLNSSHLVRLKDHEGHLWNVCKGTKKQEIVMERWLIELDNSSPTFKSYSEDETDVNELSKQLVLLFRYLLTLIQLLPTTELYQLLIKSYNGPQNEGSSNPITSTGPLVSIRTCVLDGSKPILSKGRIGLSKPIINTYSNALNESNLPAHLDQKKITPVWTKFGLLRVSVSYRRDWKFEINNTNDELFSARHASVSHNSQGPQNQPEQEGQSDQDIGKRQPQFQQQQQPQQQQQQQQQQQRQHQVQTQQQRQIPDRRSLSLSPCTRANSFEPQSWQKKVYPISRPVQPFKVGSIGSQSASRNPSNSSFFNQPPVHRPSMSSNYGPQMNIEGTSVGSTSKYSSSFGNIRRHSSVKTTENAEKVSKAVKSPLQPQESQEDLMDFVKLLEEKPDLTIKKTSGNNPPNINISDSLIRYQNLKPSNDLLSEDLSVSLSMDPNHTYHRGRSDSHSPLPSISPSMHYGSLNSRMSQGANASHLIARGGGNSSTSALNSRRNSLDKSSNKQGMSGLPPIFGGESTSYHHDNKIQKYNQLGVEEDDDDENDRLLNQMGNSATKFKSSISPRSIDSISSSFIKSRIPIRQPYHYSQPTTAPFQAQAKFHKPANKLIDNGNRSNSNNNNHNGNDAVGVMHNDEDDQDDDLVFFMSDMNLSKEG
Sequence of UniProt P14906 (whole entry, looked up): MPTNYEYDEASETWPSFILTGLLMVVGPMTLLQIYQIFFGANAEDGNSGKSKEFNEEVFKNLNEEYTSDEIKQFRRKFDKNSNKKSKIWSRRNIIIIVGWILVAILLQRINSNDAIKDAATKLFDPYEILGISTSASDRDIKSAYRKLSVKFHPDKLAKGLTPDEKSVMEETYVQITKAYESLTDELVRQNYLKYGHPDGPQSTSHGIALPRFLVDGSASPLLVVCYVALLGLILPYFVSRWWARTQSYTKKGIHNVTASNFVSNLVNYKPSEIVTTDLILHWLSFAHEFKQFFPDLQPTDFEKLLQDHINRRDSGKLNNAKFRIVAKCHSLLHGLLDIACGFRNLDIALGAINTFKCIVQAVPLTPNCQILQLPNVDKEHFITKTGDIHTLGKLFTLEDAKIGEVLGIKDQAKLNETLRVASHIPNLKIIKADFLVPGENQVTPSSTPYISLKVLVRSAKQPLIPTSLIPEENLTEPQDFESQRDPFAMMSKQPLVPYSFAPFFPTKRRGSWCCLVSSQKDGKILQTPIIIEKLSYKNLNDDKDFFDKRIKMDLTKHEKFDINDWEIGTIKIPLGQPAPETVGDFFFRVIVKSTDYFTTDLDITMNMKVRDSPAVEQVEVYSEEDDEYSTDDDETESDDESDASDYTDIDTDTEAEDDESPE
Sequence of UniProt Q55544 (whole entry, looked up): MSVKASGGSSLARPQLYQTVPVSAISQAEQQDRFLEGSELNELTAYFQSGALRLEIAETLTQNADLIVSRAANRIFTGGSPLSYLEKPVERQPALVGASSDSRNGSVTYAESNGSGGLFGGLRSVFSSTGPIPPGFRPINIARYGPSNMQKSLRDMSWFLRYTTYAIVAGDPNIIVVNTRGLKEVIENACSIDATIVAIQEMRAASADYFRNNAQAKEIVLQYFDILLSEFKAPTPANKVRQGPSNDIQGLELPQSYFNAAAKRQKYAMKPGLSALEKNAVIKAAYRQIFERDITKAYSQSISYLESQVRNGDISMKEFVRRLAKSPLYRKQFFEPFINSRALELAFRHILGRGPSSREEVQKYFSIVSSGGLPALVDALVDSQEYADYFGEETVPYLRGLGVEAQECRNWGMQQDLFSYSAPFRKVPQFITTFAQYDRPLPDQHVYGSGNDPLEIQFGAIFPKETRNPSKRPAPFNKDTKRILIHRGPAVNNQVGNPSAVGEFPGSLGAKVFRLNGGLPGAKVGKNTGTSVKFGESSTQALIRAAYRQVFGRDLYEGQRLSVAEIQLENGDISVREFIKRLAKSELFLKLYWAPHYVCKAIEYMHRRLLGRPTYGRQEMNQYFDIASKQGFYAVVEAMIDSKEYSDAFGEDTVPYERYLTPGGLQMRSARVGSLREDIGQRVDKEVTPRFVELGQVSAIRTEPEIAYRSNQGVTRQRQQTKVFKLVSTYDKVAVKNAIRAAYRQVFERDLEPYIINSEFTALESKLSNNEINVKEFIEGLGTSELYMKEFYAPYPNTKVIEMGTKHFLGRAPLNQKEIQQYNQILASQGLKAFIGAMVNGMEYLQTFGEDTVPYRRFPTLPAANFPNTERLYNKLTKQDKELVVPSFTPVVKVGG
Sequence of UniProt O34894 (whole entry, unmodified, looked up): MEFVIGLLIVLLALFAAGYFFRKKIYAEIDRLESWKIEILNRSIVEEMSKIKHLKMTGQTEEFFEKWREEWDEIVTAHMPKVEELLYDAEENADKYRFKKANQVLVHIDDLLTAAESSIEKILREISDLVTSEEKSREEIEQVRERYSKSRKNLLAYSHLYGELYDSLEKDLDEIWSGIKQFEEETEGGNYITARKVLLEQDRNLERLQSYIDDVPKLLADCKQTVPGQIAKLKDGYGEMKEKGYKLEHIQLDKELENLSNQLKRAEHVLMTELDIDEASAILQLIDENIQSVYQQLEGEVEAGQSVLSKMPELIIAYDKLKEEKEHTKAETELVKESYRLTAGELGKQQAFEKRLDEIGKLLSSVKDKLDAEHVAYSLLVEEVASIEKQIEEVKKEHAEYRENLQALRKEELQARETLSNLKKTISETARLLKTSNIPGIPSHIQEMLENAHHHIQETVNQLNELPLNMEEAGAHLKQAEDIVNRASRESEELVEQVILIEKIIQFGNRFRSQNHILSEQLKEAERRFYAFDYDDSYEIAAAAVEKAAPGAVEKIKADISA
Sequence of UniProt P40003 (whole entry, looked up): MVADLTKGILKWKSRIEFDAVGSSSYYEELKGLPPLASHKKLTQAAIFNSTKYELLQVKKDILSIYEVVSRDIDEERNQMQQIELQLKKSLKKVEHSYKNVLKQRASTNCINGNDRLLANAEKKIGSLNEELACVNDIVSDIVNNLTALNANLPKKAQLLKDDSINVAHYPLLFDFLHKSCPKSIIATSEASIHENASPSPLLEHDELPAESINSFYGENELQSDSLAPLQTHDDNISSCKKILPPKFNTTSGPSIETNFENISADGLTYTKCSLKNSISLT

Under binding, `B1 (SEC72)` is recorded as “binds” (SEC63, PEGylated surface lysines (Saccharomyces cerevisiae, UniProt P14906); cryo-EM).
For `GTCFGTCW-NH2 (designed peptide; disulfide 3-7; also: on OBOC bead: half N-acetylated, half free N-terminus; half N-acetyl, half free N-terminus/C-amide/cyclic disulfide Cys3-Cys7)`, binding read “binds” (RGS4 residues 19-end; fluorescence imaging of beads; peptide).
For `B2 (pum 848-1090)`, binding read “binds” (CNOT1/CNOT2/CNOT3/CNOT10/CNOT11/CNOT7/CNOT6/CNOT9 CCR4-NOT complex 1-2376 (Homo sapiens); pull-down).
`B3 (NTM ectodomain 36-311)`: binding “binds” (NEGR1 ectodomain 38-313 (Homo sapiens, UniProt Q7Z3B1); SPR).
For `B4 (NAS6 1-228)`, binding read “binds” (RPT1/RPT2/RPT3/RPT4/RPT5/RPT6/RPN1/RPN2/RPN13/RPN14/HSM3 base, Nas6-free (Saccharomyces cerevisiae); pull-down; 200 nM, 15 min, 30 °C, eviction assay, together with: Nas6 200 nM).
For `B5 (AddB 1-1166 D961A)`, binding read “binds” (addA 1-1232 D1172A (Bacillus subtilis, UniProt P23478); crystal structure).
For `LVCKGYCQ-NH2 (designed peptide; disulfide 3-7; also: on OBOC bead: half N-acetylated, half free N-terminus; C-amide, Cys3-Cys7 disulfide, N-acetyl partial)`, binding read “binds” (RGS4 residues 19-end; fluorescence imaging of beads; peptide).
`Ac-PTPSAPVPL (Hrs peptide 346-354 (Homo sapiens); N-terminal acetyl)`: binding “binds” (TSG101 UEV domain 2-145 del43-48 insertion GTG (Homo sapiens, UniProt Q99816); crystal structure; peptide).
`B6 (ACAT1)`: binding “binds” (PDP1 GST fusion, pY381 (UniProt Q9P0J1); pull-down; phosphorylated partner).
Under binding, `H-KHCYGFCK-NH2 (designed peptide; disulfide 3-7; SMILES NCCCC[C@H](NC(=O)[C@@H]1CSSC[C@H](NC(=O)[C@H](Cc2c[nH]cn2)NC(=O)[C@@H](N)CCCCN)C(=O)N[C@@H](Cc2ccc(O)cc2)C(=O)NCC(=O)N[C@@H](Cc2ccccc2)C(=O)N1)C(N)=O; free N-terminus/C-amide/cyclic disulfide Cys3-Cys7)` is recorded as “binds” (RGS4 residues 52-end; flow cytometry; peptide; room temperature).
For `CDKN1A fragment (Homo sapiens) (sequence not shown)`, binding read “binds” (CCNA2 173-432 (Homo sapiens, UniProt P20248); NMR spectroscopy).
`Ac-KHCYGFCK-NH2 (designed peptide; disulfide 3-7; SMILES CC(=O)N[C@@H](CCCCN)C(=O)N[C@@H](Cc1c[nH]cn1)C(=O)N[C@H]1CSSC[C@@H](C(=O)N[C@@H](CCCCN)C(N)=O)NC(=O)[C@H](Cc2ccccc2)NC(=O)CNC(=O)[C@H](Cc2ccc(O)cc2)NC1=O; N-acetyl/C-amide/cyclic disulfide Cys3-Cys7)`: binding “binds” (RGS4 residues 52-end; flow cytometry; peptide; room temperature).
`B7 (apcA)`: binding “binds” (apcE, phycocyanobilin (Synechocystis sp. PCC 6803, UniProt Q55544); cross-linking).
Under binding, `B8 (ftsZ)` is recorded as “binds” (ezrA 22-562 K135C/C222A (Bacillus subtilis, UniProt O34894); cross-linking).
`psbQ (Synechocystis sp. PCC 6803, UniProt P73048)`: binding “binds” (psbC CP43 (Synechocystis sp. PCC 6803); cryo-EM).
`B9 (CDC14 C283S)`: binding “binds” (ATG13, hyperphosphorylated (Saccharomyces cerevisiae, UniProt Q06628); pull-down; hyperphosphorylated partner).
For `B10 (VPS21)`, binding read “binds” (BLOC-1 hexamer (Saccharomyces cerevisiae, UniProt P40003); pull-down; together with: GTPγS).
`B11 (SMAD4 273-552)`: binding “binds” (SMAD2 186-467 S-to-E phosphomimetic (Homo sapiens, UniProt Q15796); SEC; pH 8.0, 4 °C, NaCl 150 mM).
